Experimental data from different studies.
Each numbered part is a random draw from the data of one study; scales do not carry over between parts.
Sequence of UniProt Q96D53 (whole entry, looked up): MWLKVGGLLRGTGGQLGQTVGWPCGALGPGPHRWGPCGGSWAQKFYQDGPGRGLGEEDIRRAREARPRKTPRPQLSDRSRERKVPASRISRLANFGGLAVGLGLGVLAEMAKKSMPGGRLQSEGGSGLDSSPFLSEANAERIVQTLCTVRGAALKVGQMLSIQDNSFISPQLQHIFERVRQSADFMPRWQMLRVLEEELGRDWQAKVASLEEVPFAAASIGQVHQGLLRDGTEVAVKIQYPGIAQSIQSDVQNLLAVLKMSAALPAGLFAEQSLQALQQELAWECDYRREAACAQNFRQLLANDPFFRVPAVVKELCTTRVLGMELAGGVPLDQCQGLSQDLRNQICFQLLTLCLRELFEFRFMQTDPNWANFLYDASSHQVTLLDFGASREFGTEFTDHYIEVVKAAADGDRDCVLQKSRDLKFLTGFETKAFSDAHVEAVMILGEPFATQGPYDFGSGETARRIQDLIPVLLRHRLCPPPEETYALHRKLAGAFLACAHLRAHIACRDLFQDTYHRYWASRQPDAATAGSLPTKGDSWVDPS
Sequence of UniProt P49674 (whole entry, looked up): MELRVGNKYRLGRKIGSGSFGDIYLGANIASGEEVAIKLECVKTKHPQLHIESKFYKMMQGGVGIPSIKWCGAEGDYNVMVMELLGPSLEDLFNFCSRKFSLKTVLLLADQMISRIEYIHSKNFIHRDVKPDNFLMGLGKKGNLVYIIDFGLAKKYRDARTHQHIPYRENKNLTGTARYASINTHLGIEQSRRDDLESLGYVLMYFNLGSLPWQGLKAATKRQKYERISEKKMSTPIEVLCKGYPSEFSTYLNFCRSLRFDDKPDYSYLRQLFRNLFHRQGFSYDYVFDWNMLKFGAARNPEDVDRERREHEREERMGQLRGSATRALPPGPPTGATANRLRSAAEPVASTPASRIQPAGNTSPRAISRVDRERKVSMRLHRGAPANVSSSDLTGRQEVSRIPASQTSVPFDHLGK
Sequence of UniProt Q04759 (whole entry, looked up): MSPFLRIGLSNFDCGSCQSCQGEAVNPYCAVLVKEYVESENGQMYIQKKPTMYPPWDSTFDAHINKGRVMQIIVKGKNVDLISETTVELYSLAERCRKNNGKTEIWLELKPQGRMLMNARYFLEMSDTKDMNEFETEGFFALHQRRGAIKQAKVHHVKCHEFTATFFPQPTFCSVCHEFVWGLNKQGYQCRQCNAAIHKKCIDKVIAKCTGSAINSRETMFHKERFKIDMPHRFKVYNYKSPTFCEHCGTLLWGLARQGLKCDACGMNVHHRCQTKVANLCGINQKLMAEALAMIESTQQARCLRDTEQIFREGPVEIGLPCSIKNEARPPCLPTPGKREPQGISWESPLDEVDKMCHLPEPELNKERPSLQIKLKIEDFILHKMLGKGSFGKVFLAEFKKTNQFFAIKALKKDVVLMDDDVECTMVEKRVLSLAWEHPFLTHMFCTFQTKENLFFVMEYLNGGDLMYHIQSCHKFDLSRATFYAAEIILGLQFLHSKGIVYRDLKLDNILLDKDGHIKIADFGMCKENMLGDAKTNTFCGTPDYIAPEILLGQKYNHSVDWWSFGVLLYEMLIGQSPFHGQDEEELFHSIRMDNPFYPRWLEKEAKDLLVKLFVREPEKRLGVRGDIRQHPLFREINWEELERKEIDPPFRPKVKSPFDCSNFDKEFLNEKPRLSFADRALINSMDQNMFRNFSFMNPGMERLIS
Sequence of UniProt Q96RI9 (whole entry, looked up): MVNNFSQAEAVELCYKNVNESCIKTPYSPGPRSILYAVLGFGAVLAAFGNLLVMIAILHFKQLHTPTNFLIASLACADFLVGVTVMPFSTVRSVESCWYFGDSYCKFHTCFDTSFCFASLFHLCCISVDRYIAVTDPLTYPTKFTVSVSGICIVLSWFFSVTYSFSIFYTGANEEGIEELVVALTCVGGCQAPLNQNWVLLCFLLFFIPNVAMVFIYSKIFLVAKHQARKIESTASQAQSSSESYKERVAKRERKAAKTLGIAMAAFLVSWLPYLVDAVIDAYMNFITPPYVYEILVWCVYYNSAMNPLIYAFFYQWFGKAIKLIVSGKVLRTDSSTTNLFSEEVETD
Sequence of UniProt P11802 (whole entry, looked up): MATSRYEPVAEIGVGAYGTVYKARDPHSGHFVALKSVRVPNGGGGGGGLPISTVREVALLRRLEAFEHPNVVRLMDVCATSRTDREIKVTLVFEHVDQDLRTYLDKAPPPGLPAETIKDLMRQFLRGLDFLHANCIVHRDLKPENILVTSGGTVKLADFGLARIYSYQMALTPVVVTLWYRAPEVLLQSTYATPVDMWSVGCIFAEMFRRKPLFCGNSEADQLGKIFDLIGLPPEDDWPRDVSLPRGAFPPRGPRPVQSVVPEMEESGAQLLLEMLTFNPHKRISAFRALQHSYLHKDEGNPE
Sequence of UniProt Q06418 (whole entry, looked up): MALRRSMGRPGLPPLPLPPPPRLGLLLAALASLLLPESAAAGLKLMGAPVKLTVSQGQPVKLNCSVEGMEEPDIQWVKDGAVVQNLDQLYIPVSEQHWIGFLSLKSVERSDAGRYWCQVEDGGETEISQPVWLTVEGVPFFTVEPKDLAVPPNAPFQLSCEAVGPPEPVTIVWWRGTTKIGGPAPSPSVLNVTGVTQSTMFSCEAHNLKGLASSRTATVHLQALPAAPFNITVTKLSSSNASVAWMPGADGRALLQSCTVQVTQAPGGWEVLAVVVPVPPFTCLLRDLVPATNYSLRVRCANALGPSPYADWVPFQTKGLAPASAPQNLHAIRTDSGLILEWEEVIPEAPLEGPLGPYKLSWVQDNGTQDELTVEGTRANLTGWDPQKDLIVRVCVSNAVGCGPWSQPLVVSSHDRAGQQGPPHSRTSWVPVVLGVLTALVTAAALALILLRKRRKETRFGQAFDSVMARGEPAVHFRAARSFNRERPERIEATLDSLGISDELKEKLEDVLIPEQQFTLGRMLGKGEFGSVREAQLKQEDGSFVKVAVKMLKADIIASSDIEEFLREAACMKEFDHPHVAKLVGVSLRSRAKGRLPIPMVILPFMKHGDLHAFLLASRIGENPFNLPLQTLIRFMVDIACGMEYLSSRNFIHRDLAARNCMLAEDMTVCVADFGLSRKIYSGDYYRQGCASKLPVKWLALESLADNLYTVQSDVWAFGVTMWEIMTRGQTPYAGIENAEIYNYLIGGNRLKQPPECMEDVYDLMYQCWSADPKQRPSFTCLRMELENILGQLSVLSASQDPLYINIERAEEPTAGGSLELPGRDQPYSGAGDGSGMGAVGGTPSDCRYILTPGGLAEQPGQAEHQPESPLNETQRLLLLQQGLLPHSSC
Sequence of UniProt Q8N5S9 (whole entry, looked up): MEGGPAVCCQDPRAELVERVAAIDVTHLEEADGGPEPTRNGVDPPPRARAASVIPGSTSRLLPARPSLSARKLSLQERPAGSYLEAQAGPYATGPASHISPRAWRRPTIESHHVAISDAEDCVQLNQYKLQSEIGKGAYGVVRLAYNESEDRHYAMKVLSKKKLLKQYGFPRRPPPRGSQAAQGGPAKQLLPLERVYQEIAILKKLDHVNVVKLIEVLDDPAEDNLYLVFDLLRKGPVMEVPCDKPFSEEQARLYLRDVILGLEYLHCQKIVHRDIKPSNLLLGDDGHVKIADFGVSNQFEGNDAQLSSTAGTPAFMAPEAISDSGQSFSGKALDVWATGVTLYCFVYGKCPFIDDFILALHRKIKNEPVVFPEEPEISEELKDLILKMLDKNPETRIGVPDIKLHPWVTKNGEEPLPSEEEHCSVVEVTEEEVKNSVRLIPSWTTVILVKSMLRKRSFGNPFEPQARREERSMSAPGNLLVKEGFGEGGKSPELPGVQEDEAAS
Sequence of UniProt O96013 (whole entry, looked up): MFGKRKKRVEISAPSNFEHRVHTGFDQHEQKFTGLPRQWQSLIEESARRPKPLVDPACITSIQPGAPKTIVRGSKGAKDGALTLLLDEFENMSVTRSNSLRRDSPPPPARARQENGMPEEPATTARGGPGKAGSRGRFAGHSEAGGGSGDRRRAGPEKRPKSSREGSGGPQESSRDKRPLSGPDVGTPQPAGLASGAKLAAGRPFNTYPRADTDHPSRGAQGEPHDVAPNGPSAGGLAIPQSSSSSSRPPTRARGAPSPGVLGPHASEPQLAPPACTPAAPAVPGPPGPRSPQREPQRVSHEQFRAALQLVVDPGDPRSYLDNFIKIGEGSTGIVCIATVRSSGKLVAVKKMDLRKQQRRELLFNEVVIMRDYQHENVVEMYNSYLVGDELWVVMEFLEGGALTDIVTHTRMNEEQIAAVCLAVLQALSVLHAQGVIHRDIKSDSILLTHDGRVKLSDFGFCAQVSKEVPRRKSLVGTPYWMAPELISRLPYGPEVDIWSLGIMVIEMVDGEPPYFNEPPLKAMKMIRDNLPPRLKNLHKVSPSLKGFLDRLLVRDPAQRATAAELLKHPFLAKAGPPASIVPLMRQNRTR
Sequence of UniProt Q6PHR2 (whole entry, looked up): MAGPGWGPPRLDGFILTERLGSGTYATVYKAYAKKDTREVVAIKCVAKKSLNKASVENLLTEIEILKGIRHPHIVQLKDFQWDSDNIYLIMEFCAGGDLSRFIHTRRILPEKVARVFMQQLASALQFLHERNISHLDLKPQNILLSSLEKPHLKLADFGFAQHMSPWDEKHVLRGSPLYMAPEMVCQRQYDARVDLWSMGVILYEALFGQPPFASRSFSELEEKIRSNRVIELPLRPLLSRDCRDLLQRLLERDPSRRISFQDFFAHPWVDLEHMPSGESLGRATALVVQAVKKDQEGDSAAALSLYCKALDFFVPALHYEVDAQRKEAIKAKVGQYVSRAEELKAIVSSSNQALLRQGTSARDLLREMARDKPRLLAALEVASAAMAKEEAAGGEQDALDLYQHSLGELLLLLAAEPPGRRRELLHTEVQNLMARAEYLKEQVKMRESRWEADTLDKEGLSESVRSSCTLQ

Set 1
Host: mouse
Medium: microsomes or S9
Concentration: 2 µM
Time: 0.5 h
| Compound | remaining compound [%] |
| --- | --- |
| c1ccc2c(Sc3nccc4ccccc34)nccc2c1 | 1.2 |
| Clc1cccc(C2CC(c3cccs3)Nc3ncnn32)c1Cl (stereo not shown) | 2.35 |
| Cn1ccnc1-c1[nH]c(-c2ccc(Cl)cc2)nc1-c1ccc(C(C)(C)C)cc1 | 8.23 |
| COc1cc(C2N=C(N3CCc4ccccc43)N=C3NC(C)=CC(=O)N32)ccc1O (stereo not shown) | 28.1 |
| CCN(c1ccccc1)c1nc(N(CC)c2ccccc2)[nH]c(=O)n1 | 68.5 |
| COc1cccc(-c2[nH]ncc2CNC2(c3ccccc3F)CCCC2)c1 | 3.61 |
| O=S(=O)(c1ccc2c(c1)OCCO2)n1cnc2ccccc21 | 0.406 |
| O=C(Cn1nc2n(CCc3ccccc3)c(=O)c3ccccc3n2c1=O)Nc1ccc2c(c1)OCO2 | 28.3 |
| Cc1cccc(NC2=CC(c3cccs3)N(c3cccc(C)c3)C2=O)c1 (stereo not shown) | 20.8 |
| Cc1c(-c2nnc(Cc3ccccc3)o2)nnn1-c1ccc(C(C)C)cc1 | 10.8 |

Set 2
SMILES: CCCCc1c(-c2ccc(O)cc2)[nH]c2nccnc12
Effect on: enzyme activity
Action: inhibitor
Concentration: 0.5 µM
Baseline: control
| target | remaining activity [%] |
| --- | --- |
| CSNK1D (Homo sapiens, UniProt P48730) | 93.7 |
| RPS6KA3 (Homo sapiens, UniProt P51812) | 90.8 |
| JAK1 (Homo sapiens, UniProt P23458) | 53.8 |
| IGF1R (Homo sapiens, UniProt P08069) | 87.3 |
| CAMK1 (Homo sapiens, UniProt Q14012) | 92.5 |
| PRKCZ (Homo sapiens, UniProt Q05513) | 97.4 |
| CSNK1E (Homo sapiens, UniProt P49674) | 102 |
| SRPK1 (Homo sapiens, UniProt Q96SB4) | 101 |
| EPHA2 (Homo sapiens, UniProt P29317) | 81.7 |
| SIK2 (Homo sapiens, UniProt Q9H0K1) | 95.9 |
| CLK1 (Homo sapiens, UniProt P49759) | 97.9 |
| SGK2 (Homo sapiens, UniProt Q9HBY8) | 99.4 |
| CLK2 (Homo sapiens, UniProt P49760) | 76.4 |
| PAK6 (Homo sapiens, UniProt Q9NQU5) | 94.3 |
| MAP3K20 (Homo sapiens, UniProt Q9NYL2) | 71 |
| PRKCQ (Homo sapiens, UniProt Q04759) | 118 |
| TYRO3 (Homo sapiens, UniProt Q06418) | 99.6 |
| Cyclin-dependent kinase 2, with cyclin E (CDK2, Homo sapiens, UniProt P24941) | 29.9 |
| CAMKK1 (Homo sapiens, UniProt Q8N5S9) | 89.7 |
| TEC (Homo sapiens, UniProt P42680) | 87.3 |
| FLT1 (Homo sapiens, UniProt P17948) | 86.3 |

Set 3
Compound: CC1=C(C#N)[C@@H](c2ccc3[nH]nc(C)c3c2)C(C#N)=C(c2ccc(Cl)cc2)N1
Effect on: cell-free assay
Method: competition with immobilised ligand
Concentration: 1 µM
| target | remaining binding |
| --- | --- |
| PAK4 (Homo sapiens, UniProt O96013) | 100% |
| IRAK4 (Homo sapiens, UniProt Q9NWZ3) | 100% |
| PIM3 (Homo sapiens, UniProt Q86V86) | 100% |
| OXSR1 (Homo sapiens, UniProt O95747) | 100% |
| AKT3 (Homo sapiens, UniProt Q9Y243) | 82.8% |
| PHKG1 (Homo sapiens, UniProt Q16816) | 100% |
| MAP3K2 (Homo sapiens, UniProt Q9Y2U5) | 72.2% |
| Cyclin-dependent kinase 4, with cyclin D1 (CDK4, Homo sapiens, UniProt P11802) | 96.1% |
| CDK16 (Homo sapiens, UniProt Q00536) | 88.9% |
| ULK3 (Homo sapiens, UniProt Q6PHR2) | 88.3% |
| GRK7 (Homo sapiens, UniProt Q8WTQ7) | 100% |
| MTOR (Homo sapiens, UniProt P42345) | 79.6% |
| TLK1 (Homo sapiens, UniProt Q9UKI8) | 100% |
| MAPK12 (Homo sapiens, UniProt P53778) | 58.6% |
| ERBB2 (Homo sapiens, UniProt P04626) | 100% |
| Ribosomal protein S6 kinase alpha-1, N-terminal kinase domain (RPS6KA1, Homo sapiens, UniProt Q15418) | 91.2% |
| COQ8B (Homo sapiens, UniProt Q96D53) | 78.8% |
| MAPK15 (Homo sapiens, UniProt Q8TD08) | 100% |
| RET (Homo sapiens, UniProt P07949) | 100% |

Set 4
SMILES: NC(N)=NC(=O)c1nc(Cl)c(N2CCCCCC2)nc1N
Effect on: β-arrestin recruitment
Action: agonist
Method: PRESTO-Tango
Concentration: 10 µM
Baseline: untreated
| target | fold over basal |
| --- | --- |
| Calcitonin receptor, isoform b (CALCR, Homo sapiens, UniProt P30988) | 1.04 |
| CCKBR (Homo sapiens, UniProt P32239) | 1.21 |
| GPR101 (Homo sapiens, UniProt Q96P66) | 1.13 |
| Trace amine-associated receptor 9 (TAAR9, Homo sapiens, UniProt Q96RI9) | 0.57 fold |
| HTR1B (Homo sapiens, UniProt P28222) | 1.22 |
| G-protein coupled receptor family C group 5 member B (GPRC5B, Homo sapiens, UniProt Q9NZH0) | 0.88 |
| Adhesion G-protein coupled receptor F3 (ADGRF3, Homo sapiens, UniProt Q8IZF5) | 1.36 |
| ADGRG6 (Homo sapiens, UniProt Q86SQ4) | 1.97 |
| VIPR1 (Homo sapiens, UniProt P32241) | 0.83 fold |
| Probable G-protein coupled receptor 25 (GPR25, Homo sapiens, UniProt O00155) | 0.86 |
| Adhesion G-protein coupled receptor G5 (ADGRG5, Homo sapiens, UniProt Q8IZF4) | 0.88 |

Some of these lines once more (set 1):
| Compound | remaining compound [%] |
| --- | --- |
| COc1cccc(-c2[nH]ncc2CNC2(c3ccccc3F)CCCC2)c1 | 3.61 |
| O=S(=O)(c1ccc2c(c1)OCCO2)n1cnc2ccccc21 | 0.406 |
| O=C(Cn1nc2n(CCc3ccccc3)c(=O)c3ccccc3n2c1=O)Nc1ccc2c(c1)OCO2 | 28.3 |
| Cc1cccc(NC2=CC(c3cccs3)N(c3cccc(C)c3)C2=O)c1 (stereo not shown) | 20.8 |
| Cc1c(-c2nnc(Cc3ccccc3)o2)nnn1-c1ccc(C(C)C)cc1 | 10.8 |
